Results gathered from unrelated publications.
Every numbered part comes from another study and shows a few of its results, in no order.
Sequence of UniProt Q8N2K1 (whole entry, looked up): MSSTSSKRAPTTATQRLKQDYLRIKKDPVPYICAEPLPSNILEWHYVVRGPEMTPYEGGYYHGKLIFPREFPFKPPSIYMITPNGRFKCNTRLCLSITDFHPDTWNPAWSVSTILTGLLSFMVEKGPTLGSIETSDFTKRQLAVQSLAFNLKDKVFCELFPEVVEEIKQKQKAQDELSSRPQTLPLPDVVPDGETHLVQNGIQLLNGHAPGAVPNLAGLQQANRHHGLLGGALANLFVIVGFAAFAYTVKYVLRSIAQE
Sequence of UniProt P68036 (whole entry, looked up): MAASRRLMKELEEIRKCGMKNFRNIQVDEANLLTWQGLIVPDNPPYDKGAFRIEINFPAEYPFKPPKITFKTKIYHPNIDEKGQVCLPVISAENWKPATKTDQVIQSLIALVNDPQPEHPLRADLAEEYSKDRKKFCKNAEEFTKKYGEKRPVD
Sequence of UniProt O00762 (whole entry, looked up): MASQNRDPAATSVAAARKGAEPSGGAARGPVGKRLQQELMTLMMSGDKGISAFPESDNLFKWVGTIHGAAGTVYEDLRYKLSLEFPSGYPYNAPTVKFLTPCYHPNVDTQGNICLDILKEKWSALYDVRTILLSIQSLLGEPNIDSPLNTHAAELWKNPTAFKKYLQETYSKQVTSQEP
Sequence of UniProt P63146 (whole entry, looked up): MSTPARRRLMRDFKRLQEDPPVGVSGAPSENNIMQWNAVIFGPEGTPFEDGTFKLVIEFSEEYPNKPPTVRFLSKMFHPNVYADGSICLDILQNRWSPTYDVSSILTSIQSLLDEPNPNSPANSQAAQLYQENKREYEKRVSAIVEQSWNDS
Sequence of UniProt Q9NPD8 (whole entry, looked up): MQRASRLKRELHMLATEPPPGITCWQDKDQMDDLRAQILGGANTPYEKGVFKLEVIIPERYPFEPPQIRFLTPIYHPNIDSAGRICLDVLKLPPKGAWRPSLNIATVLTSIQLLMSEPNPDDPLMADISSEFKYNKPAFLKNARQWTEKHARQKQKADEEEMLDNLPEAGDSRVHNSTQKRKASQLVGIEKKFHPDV
Sequence of UniProt P61081 (whole entry, looked up): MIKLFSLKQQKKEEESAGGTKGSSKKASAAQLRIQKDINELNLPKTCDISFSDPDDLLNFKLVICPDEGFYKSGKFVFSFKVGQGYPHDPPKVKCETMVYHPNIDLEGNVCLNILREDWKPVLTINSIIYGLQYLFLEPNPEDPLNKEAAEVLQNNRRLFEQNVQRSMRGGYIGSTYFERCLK
Sequence of UniProt Q712K3 (whole entry, looked up): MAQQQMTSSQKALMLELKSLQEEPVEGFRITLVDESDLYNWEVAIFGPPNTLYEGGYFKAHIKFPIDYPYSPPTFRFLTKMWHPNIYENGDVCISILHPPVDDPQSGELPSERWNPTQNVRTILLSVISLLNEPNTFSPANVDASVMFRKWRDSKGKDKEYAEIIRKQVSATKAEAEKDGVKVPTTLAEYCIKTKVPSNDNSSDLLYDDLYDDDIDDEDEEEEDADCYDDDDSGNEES

Block 1
Target: RING finger protein unkempt homolog, zinc fingers 1-6, GST-SBP tag (UNK, Homo sapiens, UniProt Q9C0B0, residues 30-357)
Sequence of UniProt Q9C0B0 (30-357, looked up): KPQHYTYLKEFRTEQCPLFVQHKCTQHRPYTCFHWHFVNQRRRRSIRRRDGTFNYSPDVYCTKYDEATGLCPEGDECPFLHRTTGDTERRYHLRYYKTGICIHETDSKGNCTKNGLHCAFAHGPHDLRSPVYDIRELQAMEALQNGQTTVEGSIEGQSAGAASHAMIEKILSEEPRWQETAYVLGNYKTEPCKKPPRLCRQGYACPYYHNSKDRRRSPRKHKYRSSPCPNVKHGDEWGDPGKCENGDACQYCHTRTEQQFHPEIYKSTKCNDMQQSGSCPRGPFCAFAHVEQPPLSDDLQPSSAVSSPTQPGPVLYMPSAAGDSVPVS
Method: RNA Bind-n-Seq
Molecule type: RNA
Sample: in vitro
Concentration: not given
Notes: RNA with constant flanks, human and mouse sites, ends assumed
Reference: input RNA pool
Reading: higher = stronger binding
Measurement: bound/input enrichment
All sequences stand within: GGGAGUUCUACAGUCCGACGAUC … CAACAGAGGAUUGAGCAUCA
UCAUACAGUGUCAGAACAAAGGCUGGGAUGGGUAUGAUGUACAGUGGGAAUGUAAGACGGACUUAGAUAUUGCAUACAAAUUUGGAAAAACUGUGGUGAGCUGUGAAGGCUAUGAGUCCU: 2.95 ratio
CGUGCAGUAGAAUGUUGUGUGAGGUUGCUUCAUGUGCGAAAUGGAAACUGCAAAUAUCAUUUGGGUGAAGAAACAUUUAAAUUAGCUCAGACAUAUAUGGAUAAACUAUCAAAACAUGGC: 0.753 ratio
UCCACAGAAGCCUCAUCCCAAGAACAUCAACACAGAGCUCCCGACGCUGGGAUUGUAUCUAGUAUACCUUUACAAAGACUUUUUAAACCAAAGGACAUGGACUGUUGGGAAGUUCAGACU: 0.776 ratio
UCAUUUACAAGGAUUAUUUUAAUGAGGAAAAUGAGUCACUGAAGUCACAUGUUCUAACAGGAAGGAAGACUUCAAGAAGUCAUUGAAACCCUUCUCUCUCUGGAAAAGCAGACUCGUACU: 0.102 ratio
CAGCUCCAGUCUAAUACCUAUGACCUCCAAGAGAGCAACGUGAGGCUAAAGCUCACGAUCGUUAGCACAGUUGGCUUUGGGGACCAGAUCAACAAAGAGGACAGCUACAAGCCUAUCGUG: 0.116 ratio
GGCUUUGAGCUUCCUCAGGGGCCUCUGGGAACAUCCUUCAAAGGAAAAUAUGGGUGUGUAGACUACUGGGUGAAGGCUUUUCUUGACCGCCCGAGCCAGCCAACUCAAGAGACAAAGAAA: 0.21 ratio
GCCAUGUGAUUUGCAAAUGGGGGGAAGCUACUGUGAGCGUGUGUUUUUUUAAUUUACACUAUAGAGUGAUUUUUUUUUCCCCCAACGUCAAGUUUUUACCUUGCAUGUACUGGAGUAUUU: 0.998 ratio
GGGCCUGUGUUUGGAAACAUGGACAAAUUUGUGGGGCUGGGAGUAUUUGUAGACACCUACCCCAAUGAGGAGAAGCAGCAAGAGCGGGUAUUCCCCUACAUCUCAGCCAUGGUGAACAAC: 0.176 ratio

Block 2
Target: Hepatocyte nuclear factor 3-beta, forkhead domain (FOXA2, Homo sapiens, UniProt Q9Y261, residues 142-269)
Method: protein-binding microarray
Molecule type: double-stranded DNA, one strand shown
Sample: in vitro
Concentration: not given
Notes: k-mer, scored over probes, only values ≥0.25
Reading: higher = stronger binding
Measurement: E-score
Residues (chain): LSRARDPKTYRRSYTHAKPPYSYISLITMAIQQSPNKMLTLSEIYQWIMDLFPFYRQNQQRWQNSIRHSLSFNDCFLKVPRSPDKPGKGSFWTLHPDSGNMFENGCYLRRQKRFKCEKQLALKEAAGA
ATATATGA: 0.36
TGTAGTAA: 0.269
GTGTCATA: 0.334
ATGTCATA: 0.302
TGTTGAAA: 0.282
GTATGCAC: 0.276
AATATAGA: 0.299
GGATGTAA: 0.254

Block 3
Sequence: B1 (TRIM5 RING domain)
Method: yeast two-hybrid
Sample: yeast
Notes: mostly zero background
Reference: not given
Reading: higher = stronger interaction
Measurement: lacZ reporter activity
B1: TRIM5 RING domain (UniProt Q9C035); chain LREVKLSPEGQKVDHCARHGEKLLLFCQEDGKVICWLCERSQEHRGHHTFLTEEVAREYQVKL
UBE2C UBC core domain (UniProt O00762): 0
UBE2B UBC core domain (UniProt P63146): 0
UBE2M UBC core domain (UniProt P61081): 0
UBE2L3 UBC core domain (UniProt P68036): 0
UBE2I UBC core domain (UniProt P63279): 0
UBE2J2 UBC core domain (UniProt Q8N2K1): 0
UBE2R2 UBC core domain (UniProt Q712K3): 0
UBE2T UBC core domain (UniProt Q9NPD8): 0

Mixed results
YAKKFKTGM  binding (HLA class I histocompatibility antigen, A alpha chain, allele A*80:01 (Homo sapiens, UniProt P04439); peptide-MHC binding; peptide; concentration not given): inactive

A few entries again (block 2):
TGTAGTAA: 0.269
